Published values of several laboratories.
Lines come from different studies, so protocols differ. Numbers after ± are the reported error.
Cell line: HeLa

| Structure (SMILES) | observed | method | time | notes | IC50 |
| --- | --- | --- | --- | --- | --- |
| COc1cc(/C=N/NC(=O)c2cc3cc(Nc4nccc(-c5cccnc5)n4)ccc3[nH]2)cc(OC)c1 | cell growth or viability | MTT | 48 h |  | 7.46 µM |
| COC(=O)[C@H](C(C)C)N(C)C(=O)[C@@H]1CCCN1C(=O)[C@H](C)N(C)C(=O)OC(C)(C)C | cell growth or viability | SRB |  |  | 22 µM |
| O=C(Cc1ncc(-c2ccc(OCCN3CCOCC3)cc2)cn1)NCc1ccccc1 | cell growth or viability | CCK-8 | 48 h |  | 0.37 µM |
| CN1CCCNC(=O)CC2(CCCCC2)CC(=O)NCCCN(C)CCCNc2cccc3c2C(=O)c2cccc(c2C3=O)NCCC1 | cell growth or viability | CCK-8 | 48 h |  | 5.5 µM |
| O=C(Cc1ccc(-c2ccc(OCCN3CCOCC3)cc2)cn1)NCc1ccc(F)cc1 | cell growth or viability | CCK-8 | 48 h |  | 0.04 µM |
| O=[N+]([O-])c1ccc(NC2=N[N+](=Cc3cccs3)[Pd-]([Cl])([Cl])[S]2)cc1 | cell growth or viability |  |  |  | 385 µM |
| CO[C@@H]1[C@@H](O[C@@H]2O[C@H](C)[C@@H](O[C@H]3C[C@@](C)(O)[C@@H](OC(=O)Nc4ccc(C)cc4)[C@H](C)O3)[C@H](N(C)C)[C@H]2O)[C@@H](CC=O)C[C@@H](C)[C@@H](O[C@H]2CC[C@H](N(C)C)[C@@H](C)O2)/C=C/C=C/C[C@@H](C)OC(=O)C[C@H]1O | cell growth or viability | CCK-8 | 72 h |  | 9.91 µM |
| O=C(O[C@@H]1Cc2c(O)cc(O)cc2O[C@@H]1c1cc(O)c(O)c(O)c1)c1cc(O)c(O)c(O)c1 | cell growth or viability | CCK-8 | 24 h |  | 61.6 µM |
| C[C@]12CC/C(=N\OCCN3CCCC3)C=C1CCC1C2CC[C@]2(C)/C(=C/c3ccccn3)CCC12 (stereo partly drawn) | cell growth or viability | MTT | 72 h |  | 22.6 µM |
| C=C1C(=O)O[C@@H]2/C=C(\C)CC/C=C(/C(=O)OC)[C@H](OC(C)=O)[C@@H](OC(=O)/C(C)=C\C)[C@@H]12 | cell growth or viability |  | 48 h |  | 5.51 µM |
| CO[C@@H]1[C@@H](O[C@@H]2O[C@H](C)[C@@H](O[C@H]3C[C@@](C)(O)[C@@H](OC(=O)Nc4ccc(C(F)(F)F)cc4)[C@H](C)O3)[C@H](N(C)C)[C@H]2O)[C@@H](CC=O)C[C@@H](C)[C@@H](O[C@H]2CC[C@H](N(C)C)[C@@H](C)O2)/C=C/C=C/C[C@@H](C)OC(=O)C[C@H]1O | cell growth or viability | CCK-8 | 72 h |  | 2.29 µM |
| COc1ccccc1CNC[C@](O)(COCc1ccccc1)[C@@H]1CC[C@@H](C)C[C@H]1OCc1ccccc1 | cell growth or viability | MTT | 72 h |  | 2.1 µM |
| Cc1ccc(C(C)C)cc1.Cl.[Cl][Ru+].[Ru+].c1ccc(-c2cn(CCCCOc3ccccc3-c3nc4ccccc4s3)nn2)nc1 | cytotoxicity | MTT | 48 h |  | 7.68 ± 1.2 µM |
| Cc1cc(/C=C/C#N)cc(C)c1Oc1cc(Nc2ccc(C#N)cn2)nc2cnccc12 |  |  | 48 h |  | 66.9 ± 0.6 µM |
| O=[N+]([O-])[O-].[NH3+][Pt-2]1([NH3+])[O]C(C(F)(F)F)=CC(c2ccccc2)=[O+]1 (stereo not drawn) | cell growth or viability | MTT |  |  | 3 µM |
| COc1ccc(C[C@H](NC(=O)[C@H](C)NC(=O)CN2CCOCC2)C(=O)N[C@@H](Cc2ccccc2)C(=O)C2(C)CO2)cc1 (stereo in doubt) | cell growth or viability | resazurin | 48 h |  | 0.35 µM |
| O=S(=O)([O-])[O-].[Cu+2].c1ccc(-c2nnc(-c3ccc4c(c3)OCO4)[nH]2)nc1 | cell growth or viability | MTT | 24 h |  | 4.98 µM |
| O=C(COc1ccc(-c2ccccc2)cc1)N[C@@H]1O[C@H](CO)[C@@H](O)[C@H](O)[C@H]1O | cell growth or viability |  | 96 h |  | > 250 µM |
| C[C@@H]1CC[C@@H]([C@@](O)(CNCc2ccc(F)cc2)COCc2ccccc2)[C@H](OCc2ccccc2)C1 | cell growth or viability | MTT | 72 h |  | 2.5 µM |
| S=C(N/N=C/c1ccc(-c2ccccc2)s1)Nc1ccccc1 | cell growth or viability |  |  |  | 43 µM |
| COc1cc(CN2CCN(c3ccc(C(F)(F)F)cc3)CC2)c2cc3[n+](cc2c1O)CCc1cc2c(cc1-3)OCO2 | cell growth or viability | SRB | 48 h |  | 4.25 µg/mL |
| CCn1cc(/C=C/c2ccc3ccccc3[n+]2CC)c2ccccc21 | cell growth or viability | MTT | 24 h |  | 6.12 µM |
| CC12CCC3c4ccc(OCCCOc5no[n+]([O-])c5S(=O)(=O)c5ccccc5)cc4CCC3C1CCC2O (stereo not drawn) | cell growth or viability | MTT | 48 h |  | 3.85 µM |
| COc1cc(F)ccc1-c1ncnc(Nc2cccc(C[S@@](C)(=N)=O)c2)n1 | cell growth or viability |  | 96 h |  | 1.1 µM |
| CCCCCCCC[P+](c1ccccc1)(c1ccccc1)c1ccccc1 | cell growth or viability | resazurin | 72 h |  | 0.34 µM |
| CC(=O)Oc1cc2c(cc1C(C)C)C1(CC3C(C)(CN4C(=O)c5c(Cl)c(Cl)c(Cl)c(Cl)c5C4=O)CCCC23C)C23c4c5c6c7c8c9c(c%10c%11c2c2c4c4c%12c5c5c6c6c8c8c%13c9c9c%10c%10c%11c%11c2c2c4c4c%12c%12c5c5c6c8c6c8c%13c9c9c%10c%10c%11c2c2c4c4c%12c5c6c5c8c9c%10c2c45)C713 (stereo not drawn) | cell growth or viability | MTT | 48 h |  | > 30 µM |

| Structure (SMILES) | observed | method | time | notes | IC50 |
| --- | --- | --- | --- | --- | --- |
| O=C(Cc1ccc(-c2ccc(OCCN3CCOCC3)cc2)cn1)NCc1ccccn1 | cell growth or viability | CCK-8 | 48 h |  | > 4 µM |
| CC(=O)O[C@H]1C[C@H](O[C@H]2[C@@H](O)C[C@H](O[C@H]3[C@@H](O)C[C@H](O[C@H]4CC[C@@]5(C)[C@H](CC[C@@H]6[C@@H]5CC[C@]5(C)[C@@H](C7=CC(=O)OC7)CC[C@]65O)C4)O[C@@H]3C)O[C@@H]2C)O[C@H](C)[C@H]1O[C@@H]1O[C@H](CO)[C@@H](O[C@@H]2O[C@H](CO)[C@@H](O)[C@H](O)[C@H]2O)[C@H](O)[C@H]1O | cell growth or viability | MTT | 48 h |  | 0.07 µM |
| Nc1ncnc2c1ncn2[C@@H]1O[C@H](CSSc2ccccn2)[C@@H](O)[C@H](F)[C@H]1O | cell growth or viability |  |  |  | 192 µM |
| C[C@]12CC/C(=N\OCCN3CCOCC3)C=C1CCC1C2CC[C@]2(C)/C(=C/c3ccccn3)CCC12 (stereo partly drawn) | cell growth or viability | MTT | 72 h |  | 44.1 µM |
| C#CCN(CC(=O)O[C@H]1[C@H](C)O[C@@H](O[C@H]2[C@H](N(C)C)[C@@H](O)[C@H](O[C@H]3[C@@H](CC=O)C[C@@H](C)[C@@H](O[C@H]4CC[C@H](N(C)C)[C@@H](C)O4)/C=C/C=C/C[C@@H](C)OC(=O)C[C@@H](O)[C@@H]3OC)O[C@@H]2C)C[C@@]1(C)O)Cc1ccc(C(F)(F)F)cc1 | cell growth or viability | CCK-8 | 72 h |  | 2.16 µM |
| CCCCCCOc1c(O)cc(C(=O)O[C@@H]2Cc3c(O)cc(O)cc3O[C@@H]2c2cc(O)c(O)c(O)c2)cc1O | cell growth or viability | CCK-8 | 24 h |  | 115 µM |
| COc1ccc([C@@H]2COc3cc(O)ccc3C2)c(OC)c1 | cell growth or viability | MTT | 72 h |  | 40.1 µM |
| Nc1ncnc2c1ncn2CC(=O)N[C@@H](Cc1ccccc1)C(=O)N[C@@H](Cc1ccccc1)C(=O)O |  |  |  |  | > 500 µM |
| S=c1n(-c2ccccc2)c2c3ccccc3nc3[n+]2[n]1[Ir-3]12([S]3)([c]3ccccc3-c3cccc[n+]31)[c]1ccccc1-c1cccc[n+]12 | cell viability | MTT |  | dark | > 50 µM |
| CO[C@@H]1[C@@H](O[C@@H]2O[C@H](C)[C@@H](O[C@H]3C[C@@](C)(O)[C@@H](OC(=O)c4ccc(C(C)(C)C)cc4)[C@H](C)O3)[C@H](N(C)C)[C@H]2O)[C@@H](CC=O)C[C@@H](C)[C@@H](O[C@H]2CC[C@H](N(C)C)[C@@H](C)O2)/C=C/C=C/C[C@@H](C)OC(=O)C[C@H]1O | cell growth or viability | CCK-8 | 72 h |  | 1.3 µM |
| O=C(Cc1ccccc1)NCc1ccc(-c2ccc(OCCN3CCOCC3)cc2)cn1 | cell growth or viability | CCK-8 | 48 h |  | 0.97 µM |
| CC(=O)OC[C@H]1O[C@@H](NC(=O)CCCc2ccc3c(c2)CCCC3)[C@H](OC(C)=O)[C@@H](OC(C)=O)[C@@H]1OC(C)=O | cell growth or viability |  | 96 h |  | 118 µM |
| COc1cccc(CNC[C@@](O)(COCc2ccccc2)[C@@H]2CC[C@@H](C)C[C@H]2OCc2ccccc2)c1 | cell growth or viability | MTT | 72 h |  | 4.6 µM |
| COc1cc(CN2CCN(c3ccccc3Cl)CC2)c2cc3[n+](cc2c1O)CCc1cc2c(cc1-3)OCO2 | cell growth or viability | SRB | 48 h |  | 5.41 µg/mL |
| Fc1cccc(CNc2nc(NCc3ccccc3)c3ccccc3n2)c1 | ODD-Luc degradation |  |  | p97-independent substrate | 11 ± 3 µM |
| CCC(C(=O)O)C1(O)CCCCC1 (stereo not drawn) | cell growth or viability |  | 72 h |  | > 200 µM |
| F[P-](F)(F)(F)(F)F.O=C(CCC(=O)c1ccccc1)NCCN(CC(=O)Nc1ccc(C#CCN(Cc2ccccn2)Cc2ccccn2)cc1)C(=O)CCc1cn(C[c-]2cccc2)nn1.[C-]#[O+].[C-]#[O+].[C-]#[O+].[Fe+2].[Re+].c1cc[cH-]c1 | cell growth or viability | resazurin | 48 h |  | 10.2 µM |
| Cc1cc(N2CCN(C(=O)CN3CCN(c4ccccc4)CC3)CC2)n2ncnc2n1 | cell growth or viability | MTT |  |  | 9.88 µM |
| CC(C)(C)c1cc2c(O)c(c1)Cc1cc(C(C)(C)C)cc(c1OCC(=O)NCc1ccncc1)Cc1cc(C(C)(C)C)cc(c1O)Cc1cc(C(C)(C)C)cc(c1OCC(=O)NCc1ccncc1)COC2 | cell growth or viability | MTT | 72 h |  | 3.9 µM |
| O=C(Cc1ccc(-c2ccc(OCCN3CCOCC3)cc2)cn1)N(O)Cc1ccccc1 | cell growth or viability | CCK-8 | 48 h |  | 1.1 µM |
| Cc1cc(C=O)cc(C)c1Oc1cc(Nc2ccc(C#N)cn2)nc2cnccc12 |  |  | 48 h |  | > 126 µM |
| O=C(c1ccc[nH]1)c1ccccc1O | cell growth or viability | resazurin | 24 h |  | > 64 µg/mL |
| CC(C)(C(=O)O)C1(O)c2ccccc2-c2ccccc21 | cell growth or viability |  |  |  | 99.1 µM |
| CC(C)c1ccc(/C=C/C(=O)N[C@@H]2O[C@H](CO)[C@@H](O)[C@H](O)[C@H]2O)cc1 | cell growth or viability |  | 96 h |  | > 250 µM |
| O=C1/C(=C(\O)c2ccccc2)C(=O)[C@@]2(C(=O)OC3CCCCC3)CS[C@H](c3ccccc3)N12 | cell growth or viability | resazurin |  |  | 31.3 µg/mL |

Repeated from above:
| Structure (SMILES) | observed | method | time | notes | IC50 |
| --- | --- | --- | --- | --- | --- |
| CC(=O)O[C@H]1C[C@H](O[C@H]2[C@@H](O)C[C@H](O[C@H]3[C@@H](O)C[C@H](O[C@H]4CC[C@@]5(C)[C@H](CC[C@@H]6[C@@H]5CC[C@]5(C)[C@@H](C7=CC(=O)OC7)CC[C@]65O)C4)O[C@@H]3C)O[C@@H]2C)O[C@H](C)[C@H]1O[C@@H]1O[C@H](CO)[C@@H](O[C@@H]2O[C@H](CO)[C@@H](O)[C@H](O)[C@H]2O)[C@H](O)[C@H]1O | cell growth or viability | MTT | 48 h |  | 0.07 µM |
| C=C1C(=O)O[C@@H]2/C=C(\C)CC/C=C(/C(=O)OC)[C@H](OC(C)=O)[C@@H](OC(=O)/C(C)=C\C)[C@@H]12 | cell growth or viability |  | 48 h |  | 5.51 µM |
| O=C(O[C@@H]1Cc2c(O)cc(O)cc2O[C@@H]1c1cc(O)c(O)c(O)c1)c1cc(O)c(O)c(O)c1 | cell growth or viability | CCK-8 | 24 h |  | 61.6 µM |
| O=C(Cc1ncc(-c2ccc(OCCN3CCOCC3)cc2)cn1)NCc1ccccc1 | cell growth or viability | CCK-8 | 48 h |  | 0.37 µM |
| F[P-](F)(F)(F)(F)F.O=C(CCC(=O)c1ccccc1)NCCN(CC(=O)Nc1ccc(C#CCN(Cc2ccccn2)Cc2ccccn2)cc1)C(=O)CCc1cn(C[c-]2cccc2)nn1.[C-]#[O+].[C-]#[O+].[C-]#[O+].[Fe+2].[Re+].c1cc[cH-]c1 | cell growth or viability | resazurin | 48 h |  | 10.2 µM |
| Cc1cc(/C=C/C#N)cc(C)c1Oc1cc(Nc2ccc(C#N)cn2)nc2cnccc12 |  |  | 48 h |  | 66.9 ± 0.6 µM |
| COc1cc(CN2CCN(c3ccc(C(F)(F)F)cc3)CC2)c2cc3[n+](cc2c1O)CCc1cc2c(cc1-3)OCO2 | cell growth or viability | SRB | 48 h |  | 4.25 µg/mL |
| C[C@]12CC/C(=N\OCCN3CCOCC3)C=C1CCC1C2CC[C@]2(C)/C(=C/c3ccccn3)CCC12 (stereo partly drawn) | cell growth or viability | MTT | 72 h |  | 44.1 µM |
